Results gathered from unrelated publications.
Parts stem from different laboratories: compare values within a part only.
Chain of UniProt P11388 (whole entry, looked up): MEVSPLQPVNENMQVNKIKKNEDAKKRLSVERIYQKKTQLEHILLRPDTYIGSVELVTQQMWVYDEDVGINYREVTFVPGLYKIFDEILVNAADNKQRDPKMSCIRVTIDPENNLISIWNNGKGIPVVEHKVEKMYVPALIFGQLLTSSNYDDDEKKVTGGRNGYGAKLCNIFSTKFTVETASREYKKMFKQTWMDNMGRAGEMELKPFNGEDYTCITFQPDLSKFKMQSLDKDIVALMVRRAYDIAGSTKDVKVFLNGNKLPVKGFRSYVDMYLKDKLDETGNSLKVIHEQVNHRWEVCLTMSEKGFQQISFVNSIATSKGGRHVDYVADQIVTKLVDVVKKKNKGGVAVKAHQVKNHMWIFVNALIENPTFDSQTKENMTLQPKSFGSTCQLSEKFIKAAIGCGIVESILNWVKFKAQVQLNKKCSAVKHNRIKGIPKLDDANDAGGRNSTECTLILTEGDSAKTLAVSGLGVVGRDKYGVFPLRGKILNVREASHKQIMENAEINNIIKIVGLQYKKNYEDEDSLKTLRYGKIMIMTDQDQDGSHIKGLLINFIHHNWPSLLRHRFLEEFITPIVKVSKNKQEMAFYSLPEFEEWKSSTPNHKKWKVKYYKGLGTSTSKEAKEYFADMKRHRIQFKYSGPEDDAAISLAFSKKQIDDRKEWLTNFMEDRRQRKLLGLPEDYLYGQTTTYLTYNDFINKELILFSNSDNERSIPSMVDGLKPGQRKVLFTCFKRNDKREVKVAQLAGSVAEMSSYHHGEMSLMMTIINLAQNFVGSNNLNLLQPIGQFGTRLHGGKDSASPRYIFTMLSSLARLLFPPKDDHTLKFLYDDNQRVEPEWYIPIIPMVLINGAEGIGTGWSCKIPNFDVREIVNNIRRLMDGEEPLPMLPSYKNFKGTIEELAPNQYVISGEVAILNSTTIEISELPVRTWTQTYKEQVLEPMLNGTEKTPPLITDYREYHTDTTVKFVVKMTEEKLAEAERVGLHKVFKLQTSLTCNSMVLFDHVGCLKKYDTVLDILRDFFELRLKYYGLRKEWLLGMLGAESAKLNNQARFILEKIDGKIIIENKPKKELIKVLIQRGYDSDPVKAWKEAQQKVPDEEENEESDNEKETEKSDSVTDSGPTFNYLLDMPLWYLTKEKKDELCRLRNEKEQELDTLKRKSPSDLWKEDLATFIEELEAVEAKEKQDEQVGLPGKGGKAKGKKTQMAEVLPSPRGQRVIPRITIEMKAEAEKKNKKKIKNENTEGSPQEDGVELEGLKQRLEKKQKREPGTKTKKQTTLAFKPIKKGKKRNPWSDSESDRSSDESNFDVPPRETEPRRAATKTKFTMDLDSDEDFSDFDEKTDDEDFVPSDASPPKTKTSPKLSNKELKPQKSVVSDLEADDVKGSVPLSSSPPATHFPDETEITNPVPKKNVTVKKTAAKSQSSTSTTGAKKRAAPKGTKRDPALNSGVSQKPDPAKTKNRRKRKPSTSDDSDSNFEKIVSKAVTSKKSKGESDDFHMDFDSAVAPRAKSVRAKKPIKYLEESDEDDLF

Series 1
Target: Replicase polyprotein 1ab, nsp14 (rep, Severe acute respiratory syndrome coronavirus 2, UniProt P0DTD1)
Action: inhibitor
SMILES | IC50
Cc1c(S(=O)(=O)N2CCn3nccc3C2)cc(C(=O)NCc2c(F)ccnc2N2CCCC2)n1C | 0.43 nM
COc1ccccc1CNC(=O)c1cc(C(=O)N2CCC(C)CC2)c(C)n1C | > 6250 nM
COc1ccccc1CNC(=O)c1cc(S(=O)(=O)N2Cc3ccccc3C2)c(C)n1C | 16 nM
COc1ccccc1CNC(=O)c1cc(S(=O)(=O)N2CCN(C(C)=O)CC2)c(C)n1C | > 6250 nM

Series 2
Structure (SMILES): CO/N=C(\C(=O)N[C@@H]1C(=O)N2C(C(=O)O)=C(COC(C)=O)CS[C@H]12)c1csc(N)n1
organism | system | MIC [µg/mL]
Pseudomonas aeruginosa | clinical isolate RKI-No_253/15 | > 16
Pseudomonas aeruginosa | clinical isolate RKI-No_579/15 | > 16
Pseudomonas aeruginosa | clinical isolate RKI-No_481/15 | > 16
Pseudomonas aeruginosa | clinical isolate RKI-No_497/15 | > 16
Citrobacter freundii | clinical isolate RKI-No_604/16 | > 16

Mixed results
SMILES | target or system | assay | system | setting | how to read | endpoint | result
COC(=O)Nc1c(N)nc(-c2nn(Cc3ccccc3F)c3ncc(F)cc23)nc1N |  |  | healthy male humans, plasma | 10 mg once daily, day 6 vs day 5, fed, multiple dose, together with: warfarin 25 mg single dose | reference: with over without warfarin | AUC(tau) ratio | 1.03
COc1cc([C@@H]2c3cc4c(cc3[C@@H](O[C@@H]3O[C@@H]5CO[C@@H](C)O[C@H]5[C@H](O)[C@H]3O)[C@H]3COC(=O)[C@H]23)OCO4)cc(OC)c1O | TOP2A (Homo sapiens, UniProt P11388) | DNA decatenation, inhibitor, gel-based decatenation |  | 125 µM |  | inhibition | 96.3%
Fc1ccccc1Cc1nc(-c2nc(C(F)(F)F)n[nH]2)cn2ccnc12 |  |  | healthy human subjects, both sexes | oral, 10 mg, fed |  | subjects with nervous system TEAEs | 15.4%

For quick reference, copied from above (mixed results):
SMILES | target or system | assay | system | setting | how to read | endpoint | result
Fc1ccccc1Cc1nc(-c2nc(C(F)(F)F)n[nH]2)cn2ccnc12 |  |  | healthy human subjects, both sexes | oral, 10 mg, fed |  | subjects with nervous system TEAEs | 15.4%
